Experimental data of several laboratories.
Values joined by “and” are separate records of one study, mostly repeats; a detail may differ.
USP16 ZnF-UBD domain: Ubiquitin carboxyl-terminal hydrolase 16, ZnF-UBD domain (USP16, Homo sapiens, UniProt Q9Y5T5)
Sequence of UniProt Q9Y5T5 (whole entry, looked up): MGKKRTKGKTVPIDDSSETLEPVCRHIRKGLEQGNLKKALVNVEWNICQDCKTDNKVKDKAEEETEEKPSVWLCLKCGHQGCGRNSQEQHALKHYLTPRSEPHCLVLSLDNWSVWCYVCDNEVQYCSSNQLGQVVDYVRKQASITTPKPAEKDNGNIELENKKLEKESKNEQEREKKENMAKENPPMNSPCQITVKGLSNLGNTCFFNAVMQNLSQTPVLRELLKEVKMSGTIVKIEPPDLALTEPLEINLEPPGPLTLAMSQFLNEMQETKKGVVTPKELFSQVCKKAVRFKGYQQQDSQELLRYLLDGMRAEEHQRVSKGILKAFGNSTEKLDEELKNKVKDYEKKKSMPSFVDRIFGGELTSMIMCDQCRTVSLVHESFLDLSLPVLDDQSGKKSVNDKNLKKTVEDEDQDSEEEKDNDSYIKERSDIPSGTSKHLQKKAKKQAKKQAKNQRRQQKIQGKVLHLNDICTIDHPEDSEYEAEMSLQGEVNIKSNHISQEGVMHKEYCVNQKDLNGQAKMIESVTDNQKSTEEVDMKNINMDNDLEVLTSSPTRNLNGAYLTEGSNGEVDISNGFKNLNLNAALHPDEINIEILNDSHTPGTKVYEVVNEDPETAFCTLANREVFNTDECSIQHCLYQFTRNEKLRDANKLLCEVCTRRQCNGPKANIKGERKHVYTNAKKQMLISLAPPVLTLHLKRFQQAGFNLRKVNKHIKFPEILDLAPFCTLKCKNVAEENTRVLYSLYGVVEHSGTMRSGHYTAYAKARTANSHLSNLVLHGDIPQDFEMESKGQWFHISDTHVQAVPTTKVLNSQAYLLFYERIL

C[C@@H](O)[C@@H](CO)NC(=O)[C@@H](CCCNC(=N)N)NC(=O)[C@@H]1CCCN1C(=O)[C@@H]1CSSC[C@H](NC(=O)[C@H](Cc2ccccc2)NC(=O)CN2CCN(CC(=O)O)CCN(CC(=O)O)CCN(CC(=O)O)CC2)C(=O)N[C@@H](Cc2ccc(O)cc2)C(=O)N[C@@H](Cc2ccccc2)C(=O)N[C@@H](CCC(N)=O)C(=O)N[C@@H](CC(N)=O)C(=O)N1 [gallium-68 labelled] — radiochemical purity (normal saline; 1 h, room temperature): > 99%
N#Cc1ccc2c(c1)[C@H]1CCCN(C(=O)c3ccc4[nH]cnc4c3)[C@H]1C2 — total urinary corticosteroid excretion (T2DM patients with overweight or obesity, urine; oral, 360 mg, day 1, 0-24 h, multiple dosing, adjusted geometric mean; relative to: baseline day -1, -24-0 h): 200%
O=P(O)(O)C(Cl)(Cl)P(=O)(O)O — VCAM-1 level (endothelial activation, immunostaining; mouse, SAH model, cortical capillaries; dose not given): 1.14 MFI and 3.52 MFI
O=C(O)CNC(=O)Cc1ccccc1 — sarcomere length (ventricular cardiomyocytes, C57BL/6 mouse; dose not given, 0.696 s): 1.72 µm
O=C(O)CCC1=Nc2cccc3cccc(c23)N1 — Kd (USP16 ZnF-UBD domain): > 1000 µM
CC(C)NCC(O)c1ccc(O)c(O)c1 (stereo not shown) — sarcomere length (ventricular cardiomyocytes, C57BL/6 mouse; dose not given, 0.764 s): 1.72 µm
O=C(O)CNC(=O)c1ccco1 — log2 fold change (binding, MIDAS equilibrium dialysis LC-MS; A2AR-BRIL thermostabilized; concentration not given; relative to: no-protein control): -0.556
O=C(O)CCc1cnccn1 — Kd (USP16 ZnF-UBD domain): > 1000 µM
Cn1cc(-c2ccc(-c3cncc(Cl)c3N3CCC4(CCNC4=O)CC3)cc2)cn1 — log2 fold change (COLO 205; gene expression, microarray, refers to: KLF10 mRNA; concentration not given, 6 h; relative to: untreated cells): 1.56
OC(CCN1CCCCC1)(c1ccccc1)C1CC2C=CC1C2 (stereo not shown) — change, EEG Alpha power, in O1-Pz (resting-state EEG; healthy elderly humans; oral, 2 mg, eyes open, LS mean; relative to: baseline): 9.3%
C[C@@H](O)[C@H](N)C(=O)O — log2 fold change (binding, MIDAS equilibrium dialysis LC-MS; A2AR-BRIL thermostabilized; concentration not given; relative to: no-protein control): -0.126
C[C@H](Oc1ccc(Br)cc1-c1ccon1)C(=O)O — difference from placebo (last response latency; human, tibialis anterior muscle; 800 mg, 15 Hz, SAD): -0.518%
Cc1ncc(COP(=O)(O)O)c(CN)c1O — log2 fold change (binding, MIDAS equilibrium dialysis LC-MS; A2AR-BRIL thermostabilized; concentration not given; relative to: no-protein control): 0.634
NC(=O)c1cnc2[nH]ccc2c1N[C@@H]1[C@@H]2CC3C[C@H]1C[C@@](O)(C3)C2 — change from baseline (flow cytometry, refers to: CD8+ naive T cells; Japanese healthy subjects, peripheral blood; oral, 30 mg twice daily, day 4): -1.05%
O=C(O)CO — log2 fold change (binding, MIDAS equilibrium dialysis LC-MS; A2AR-BRIL thermostabilized; concentration not given; relative to: no-protein control): -0.674
Cc1cc([C@H]2C[C@H]3[C@@H](CF)SC(N)=N[C@@]3(c3ccc(F)cc3F)CO2)on1 — Aβ40 level (refers to: Aβx-40; Mus musculus wild-type, cerebrospinal fluid; subcutaneous, 30 mg/kg, 14 h): 1.11 ng/mL
